Assay results gathered from unrelated publications.
Each numbered part is a random draw from the data of one study; scales do not carry over between parts. “And” joins repeats or separate records; there may be more than shown.

Series 1 — effect on: cell-free assay; technique: competition with immobilised ligand; concentration: 1 µM; measurement: remaining binding
SMILES: CNCc1ccccc1-c1csc([C@H](C)Nc2nc(C)nc3cc(OC)c(OC)cc23)c1
PTK2 (Homo sapiens, UniProt Q05397): 92%
RIOK2 (Homo sapiens, UniProt Q9BVS4): 100%
Tyrosine-protein kinase ABL1, non-phosphorylated (ABL1, Homo sapiens, UniProt P00519, H396P): 89%
LATS2 (Homo sapiens, UniProt Q9NRM7): 95%
STK38L (Homo sapiens, UniProt Q9Y2H1): 94%
HASPIN (Homo sapiens, UniProt Q8TF76): 100%
OXSR1 (Homo sapiens, UniProt O95747): 78%
FLT3 (Homo sapiens, UniProt P36888, D835V/ITD): 81%
EPHB2 (Homo sapiens, UniProt P29323): 100%
MAP3K15 (Homo sapiens, UniProt Q6ZN16): 77%
FLT3 (Homo sapiens, UniProt P36888, K663Q): 93%
BMP2K (Homo sapiens, UniProt Q9NSY1): 79%
MAP4K1 (Homo sapiens, UniProt Q92918): 100%

Series 2 — organism: Sarcocystis neurona; effect on: parasite activity; concentration: 10 µM; time: 96 h; measurement: activity class
COc1ccccc1OCC(O)CN1CCN(CC(=O)Nc2c(C)cccc2C)CC1 (stereo not shown): inactive
CC(CCc1ccccc1)NCC(O)c1ccc(O)c(C(N)=O)c1 (stereo not shown): inactive
CN(C)[C@@H]1C(O)=C(C(N)=O)C(=O)[C@@]2(O)C(O)=C3C(=O)c4c(O)cccc4[C@@](C)(O)[C@H]3[C@H](O)[C@@H]12: inactive

Series 3 — measurement: viability
Structure (SMILES): CC(C)(C)c1cnc(CSc2cnc(NC(=O)C3CCN(CCCCCSc4cccc5c4CN(C4CCC(=O)NC4=O)C5=O)CC3)s2)o1 (stereo not shown)
HH; CCK-8; 10 nM: 103% and 95.8%
HuT78; trypan blue exclusion; 10 nM, 48 h; baseline: untreated control: 96% and 94.7%
HuT78; cell growth or viability, trypan blue; 1 nM, 48 h: 99.2%

Series 4 — host: mouse; medium: microsomes or S9; concentration: 2 µM; time: 0.5 h; measurement: remaining compound
O=c1[nH]c(NN2CCOCC2)nnc1Cc1ccc(Cl)cc1: 36.6%
Clc1ccc(C2=NOC(COc3cccc(Cl)c3Cl)CC2n2cncn2)cc1 (stereo not shown): 29.2%
CC(C)(C)OC(=O)N[C@@H](CC(=O)N1CCCCCN1C(=O)C[C@@H](Cc1cc(F)c(F)cc1F)NC(=O)OC(C)(C)C)Cc1cc(F)c(F)cc1F: < 1%

Series 5 — SMILES: C=CCc1ccc(O)c(-c2ccc(O)c(CC=C)c2)c1; effect on: chloride current; technique: whole-cell voltage clamp; measurement: IC50
Anoctamin-1 (ANO1, Homo sapiens, UniProt Q5XXA6, del476-501/F803Y); inhibitor; 20 mV holding voltage: 10.6 µM
Anoctamin-1 (ANO1, Homo sapiens, UniProt Q5XXA6, D383A/del476-501); membrane voltage -20 mV: 7.27 µM
Anoctamin-1 (ANO1, Homo sapiens, UniProt Q5XXA6, del476-501/R631I); inhibitor; R605I mutant at -80 mV: 25.4 µM

Further values, each from its own experiment
CCN1C(C)(C)CC(Oc2ccc(C(=O)Nc3ccc(NC(=O)Nc4cc(C(C)(C)C)on4)cc3)nc2)CC1(C)C  nuclei count (mouse MPNST tumor cells; high-content nuclear imaging, measured: cell number; 10 µM, 12 h, mean of 2 replicates; baseline: plate mean, higher = more cells): 3.35 z-score
CC(=O)N[C@@H](Cc1c[nH]c2ccccc12)C(=O)N[C@@H](CCC(=O)C=[N+]=[N-])C(=O)OC(C)C  ribonate level (UPLC-MS/MS; EL4 tumor, C57BL/6 CES1-/- mice, tumor; subcutaneous, 0.3 mg/kg DON equivalent daily, 5 days; higher = more metabolite): 1.6e+07 a.u. and 1.24e+07 a.u. and 2.47e+07 a.u. and 2.57e+07 a.u. and 2.79e+07 a.u. and 2.33e+07 a.u.
C/C=C(/C(=C/C)c1ccc(O)cc1)c1ccc(O)cc1  nuclei count (mouse MPNST tumor cells; high-content nuclear imaging, measured: cell number; 10 µM, 12 h, mean of 2 replicates; baseline: plate mean, higher = more cells): 0.175 z-score

For quick reference, copied from above (series 5):
Anoctamin-1 (ANO1, Homo sapiens, UniProt Q5XXA6, del476-501/R631I); inhibitor; R605I mutant at -80 mV: 25.4 µM
Anoctamin-1 (ANO1, Homo sapiens, UniProt Q5XXA6, del476-501/F803Y); inhibitor; 20 mV holding voltage: 10.6 µM
